Measurements collected from several papers.
Parts stem from different laboratories: compare values within a part only.
Chain of UniProt P18089 (whole entry, looked up): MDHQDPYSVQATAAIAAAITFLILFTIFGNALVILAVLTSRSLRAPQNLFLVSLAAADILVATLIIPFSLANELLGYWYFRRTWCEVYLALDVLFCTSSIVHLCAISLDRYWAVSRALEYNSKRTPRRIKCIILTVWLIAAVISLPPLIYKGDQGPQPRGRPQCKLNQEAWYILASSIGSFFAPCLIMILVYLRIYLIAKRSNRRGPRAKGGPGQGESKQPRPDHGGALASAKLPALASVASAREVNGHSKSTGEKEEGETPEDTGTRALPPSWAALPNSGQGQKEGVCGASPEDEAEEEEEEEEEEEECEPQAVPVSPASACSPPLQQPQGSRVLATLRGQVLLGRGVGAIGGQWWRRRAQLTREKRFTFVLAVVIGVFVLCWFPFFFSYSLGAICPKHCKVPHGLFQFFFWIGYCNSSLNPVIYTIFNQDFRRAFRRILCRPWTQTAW
Chain of UniProt P46098 (whole entry, looked up): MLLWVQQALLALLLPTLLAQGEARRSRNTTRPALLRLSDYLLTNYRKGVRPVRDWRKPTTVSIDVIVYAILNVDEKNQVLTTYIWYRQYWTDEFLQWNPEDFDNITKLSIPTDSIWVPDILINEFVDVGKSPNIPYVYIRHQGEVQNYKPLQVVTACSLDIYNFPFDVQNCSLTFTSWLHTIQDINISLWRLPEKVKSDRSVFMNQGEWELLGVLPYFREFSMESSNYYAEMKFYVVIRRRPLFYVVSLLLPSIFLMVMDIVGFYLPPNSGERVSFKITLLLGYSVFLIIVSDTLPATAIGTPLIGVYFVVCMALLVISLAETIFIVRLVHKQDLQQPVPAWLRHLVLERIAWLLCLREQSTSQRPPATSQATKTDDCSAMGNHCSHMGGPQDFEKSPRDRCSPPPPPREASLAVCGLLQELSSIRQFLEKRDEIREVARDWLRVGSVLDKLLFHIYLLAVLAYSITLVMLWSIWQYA
Chain of UniProt P08172 (whole entry, looked up): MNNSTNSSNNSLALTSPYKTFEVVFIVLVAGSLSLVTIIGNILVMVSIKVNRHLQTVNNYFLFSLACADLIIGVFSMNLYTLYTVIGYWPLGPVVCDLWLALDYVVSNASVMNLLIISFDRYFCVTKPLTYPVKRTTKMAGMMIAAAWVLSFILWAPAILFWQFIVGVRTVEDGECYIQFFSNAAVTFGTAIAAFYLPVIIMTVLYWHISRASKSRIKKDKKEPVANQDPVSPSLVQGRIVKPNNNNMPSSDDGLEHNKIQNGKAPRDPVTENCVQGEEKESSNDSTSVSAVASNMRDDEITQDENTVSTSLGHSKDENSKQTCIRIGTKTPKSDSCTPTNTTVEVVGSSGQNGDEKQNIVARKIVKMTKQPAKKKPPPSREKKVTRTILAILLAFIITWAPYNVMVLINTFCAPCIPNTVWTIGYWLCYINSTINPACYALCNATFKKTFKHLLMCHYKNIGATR
Chain of UniProt Q9H3N8 (whole entry, looked up): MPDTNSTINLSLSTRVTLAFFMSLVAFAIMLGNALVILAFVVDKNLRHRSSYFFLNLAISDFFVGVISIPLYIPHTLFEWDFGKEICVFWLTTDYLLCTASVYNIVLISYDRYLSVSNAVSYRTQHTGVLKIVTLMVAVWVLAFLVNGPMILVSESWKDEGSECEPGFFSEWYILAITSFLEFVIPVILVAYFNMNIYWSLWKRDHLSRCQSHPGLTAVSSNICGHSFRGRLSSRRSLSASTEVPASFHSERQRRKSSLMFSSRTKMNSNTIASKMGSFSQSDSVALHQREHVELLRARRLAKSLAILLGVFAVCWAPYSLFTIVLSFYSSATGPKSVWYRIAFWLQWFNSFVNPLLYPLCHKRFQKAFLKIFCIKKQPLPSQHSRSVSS
Chain of UniProt P18825 (whole entry, looked up): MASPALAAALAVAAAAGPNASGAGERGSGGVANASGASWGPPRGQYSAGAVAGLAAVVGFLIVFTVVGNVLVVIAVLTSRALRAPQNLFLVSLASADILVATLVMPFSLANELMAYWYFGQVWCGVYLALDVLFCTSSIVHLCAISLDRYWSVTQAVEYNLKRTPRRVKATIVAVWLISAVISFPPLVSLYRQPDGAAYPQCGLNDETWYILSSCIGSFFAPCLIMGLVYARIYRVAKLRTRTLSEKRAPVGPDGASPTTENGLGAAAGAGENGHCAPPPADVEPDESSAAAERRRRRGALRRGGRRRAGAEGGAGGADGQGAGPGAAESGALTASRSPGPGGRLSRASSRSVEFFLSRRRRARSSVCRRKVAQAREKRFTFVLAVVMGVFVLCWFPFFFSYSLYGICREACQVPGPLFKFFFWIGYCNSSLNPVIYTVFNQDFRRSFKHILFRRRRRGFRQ
Chain of UniProt P34969 (whole entry, looked up): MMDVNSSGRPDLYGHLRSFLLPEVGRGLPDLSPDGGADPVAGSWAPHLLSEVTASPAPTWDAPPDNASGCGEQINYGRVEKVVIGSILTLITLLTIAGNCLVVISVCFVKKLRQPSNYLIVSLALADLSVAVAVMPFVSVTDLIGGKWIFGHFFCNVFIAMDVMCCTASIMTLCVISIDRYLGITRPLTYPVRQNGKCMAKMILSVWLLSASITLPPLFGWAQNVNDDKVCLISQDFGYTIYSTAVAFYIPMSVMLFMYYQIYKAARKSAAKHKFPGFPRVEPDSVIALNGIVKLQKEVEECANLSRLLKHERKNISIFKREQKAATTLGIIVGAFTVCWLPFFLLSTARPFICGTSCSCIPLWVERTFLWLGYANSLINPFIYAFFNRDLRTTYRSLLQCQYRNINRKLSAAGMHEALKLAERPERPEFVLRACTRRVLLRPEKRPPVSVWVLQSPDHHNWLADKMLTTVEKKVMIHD
Chain of UniProt P08173 (whole entry, looked up): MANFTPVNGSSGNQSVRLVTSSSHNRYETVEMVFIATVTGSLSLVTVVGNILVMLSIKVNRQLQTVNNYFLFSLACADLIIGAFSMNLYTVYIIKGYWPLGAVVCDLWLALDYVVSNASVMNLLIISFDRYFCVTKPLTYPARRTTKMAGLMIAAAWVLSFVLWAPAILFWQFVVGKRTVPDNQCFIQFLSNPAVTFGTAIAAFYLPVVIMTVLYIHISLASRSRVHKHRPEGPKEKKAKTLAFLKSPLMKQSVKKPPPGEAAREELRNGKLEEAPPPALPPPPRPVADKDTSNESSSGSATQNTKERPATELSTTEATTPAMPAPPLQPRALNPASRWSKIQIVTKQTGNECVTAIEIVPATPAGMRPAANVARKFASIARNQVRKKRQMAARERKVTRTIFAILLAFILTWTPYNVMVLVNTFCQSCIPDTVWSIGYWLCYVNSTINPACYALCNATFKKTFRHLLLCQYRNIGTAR
Chain of UniProt P21728 (whole entry, looked up): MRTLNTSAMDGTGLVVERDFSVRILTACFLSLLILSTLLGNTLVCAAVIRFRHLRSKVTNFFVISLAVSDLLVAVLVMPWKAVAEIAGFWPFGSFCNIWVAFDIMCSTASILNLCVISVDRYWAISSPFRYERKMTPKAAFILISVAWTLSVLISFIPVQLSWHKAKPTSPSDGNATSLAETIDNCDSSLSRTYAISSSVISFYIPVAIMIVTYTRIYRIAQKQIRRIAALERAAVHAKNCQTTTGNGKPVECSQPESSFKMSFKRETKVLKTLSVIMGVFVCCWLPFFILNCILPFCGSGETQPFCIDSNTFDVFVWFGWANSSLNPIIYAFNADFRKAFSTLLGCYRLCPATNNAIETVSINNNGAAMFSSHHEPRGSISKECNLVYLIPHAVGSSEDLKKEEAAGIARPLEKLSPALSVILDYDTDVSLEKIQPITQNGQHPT
Chain of UniProt P35368 (whole entry, looked up): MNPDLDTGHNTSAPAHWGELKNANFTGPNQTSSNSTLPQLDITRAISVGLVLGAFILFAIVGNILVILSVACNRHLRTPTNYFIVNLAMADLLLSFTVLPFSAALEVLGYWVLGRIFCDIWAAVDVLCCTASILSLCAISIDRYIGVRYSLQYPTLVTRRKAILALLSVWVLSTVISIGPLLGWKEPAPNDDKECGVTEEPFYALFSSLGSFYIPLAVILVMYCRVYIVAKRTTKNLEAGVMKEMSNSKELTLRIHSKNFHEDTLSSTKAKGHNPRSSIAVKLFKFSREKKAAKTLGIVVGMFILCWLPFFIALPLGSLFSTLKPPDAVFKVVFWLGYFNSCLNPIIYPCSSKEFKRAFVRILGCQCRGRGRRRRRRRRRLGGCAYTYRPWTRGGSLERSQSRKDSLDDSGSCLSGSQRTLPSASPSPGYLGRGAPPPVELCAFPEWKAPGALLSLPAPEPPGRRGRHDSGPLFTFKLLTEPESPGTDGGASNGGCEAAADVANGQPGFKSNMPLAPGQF

Set 1
Target: Serine/threonine-protein kinase TAO3 (TAOK3, Homo sapiens, UniProt Q9H2K8)
Effect on: enzyme activity
Mode: inhibitor
Concentration: 0.5 µM
Reference: control
Construct (Q9H2K8 1-898): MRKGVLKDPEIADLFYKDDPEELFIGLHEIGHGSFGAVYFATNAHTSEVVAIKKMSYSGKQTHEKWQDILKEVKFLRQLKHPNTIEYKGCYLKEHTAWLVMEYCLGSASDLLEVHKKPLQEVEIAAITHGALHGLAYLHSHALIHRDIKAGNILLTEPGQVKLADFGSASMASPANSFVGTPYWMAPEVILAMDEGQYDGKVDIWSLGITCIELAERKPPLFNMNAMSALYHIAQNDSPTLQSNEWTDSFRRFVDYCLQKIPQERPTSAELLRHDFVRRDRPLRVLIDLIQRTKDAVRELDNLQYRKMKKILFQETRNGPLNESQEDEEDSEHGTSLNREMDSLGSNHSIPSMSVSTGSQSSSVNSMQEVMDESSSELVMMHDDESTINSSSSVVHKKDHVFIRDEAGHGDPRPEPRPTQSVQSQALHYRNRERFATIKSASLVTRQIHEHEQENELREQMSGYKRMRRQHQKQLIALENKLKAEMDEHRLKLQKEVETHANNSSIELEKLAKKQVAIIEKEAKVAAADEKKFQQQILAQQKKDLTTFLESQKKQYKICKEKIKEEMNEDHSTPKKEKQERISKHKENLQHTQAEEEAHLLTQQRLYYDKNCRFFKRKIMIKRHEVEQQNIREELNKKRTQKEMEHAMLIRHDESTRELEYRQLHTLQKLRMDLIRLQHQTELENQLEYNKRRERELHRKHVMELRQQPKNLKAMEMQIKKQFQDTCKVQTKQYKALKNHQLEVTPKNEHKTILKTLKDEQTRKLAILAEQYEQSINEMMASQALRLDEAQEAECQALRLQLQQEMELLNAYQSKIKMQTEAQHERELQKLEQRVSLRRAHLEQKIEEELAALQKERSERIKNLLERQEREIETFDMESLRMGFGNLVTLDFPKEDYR
| SMILES | remaining activity |
| --- | --- |
| Cc1cc(Nc2cc(N3CCN(C)CC3)nc(Sc3ccc(NC(=O)C4CC4)cc3)n2)[nH]n1 | 76.3% |
| CN(C)S(=O)(=O)c1ccc2c(c1)/C(=C/c1cc3c([nH]1)CCCC3)C(=O)N2 | 55.4% |
| O=C1NC(=O)c2c1c1c3ccccc3[nH]c1c1[nH]c3cc(Br)ccc3c21 | 82.3% |
| O=Nc1c(-c2c(O)[nH]c3cc(Br)ccc23)[nH]c2ccccc12 | 56.9% |
| O=C1Cc2c([nH]c3ccc(Br)cc23)-c2ccccc2N1 | 82.8% |
| Oc1cccc(-c2nc(N3CCOCC3)c3oc4ncccc4c3n2)c1 | 86.8% |
| O=c1cc(N2CCOCC2)oc2c(-c3ccccc3)cccc12 | 88.2% |
| O=C1NC(=O)c2c1c1c3ccccc3[nH]c1n1cncc21 | 66.9% |
| c1ccc2c(-c3ccncc3)c[nH]c2c1 | 103% |
| COc1ccc2c(c1)c(C1=C(c3c[nH]c4ccccc34)C(=O)NC1=O)cn2CCCN(C)C | 78.2% |
| COc1cccc(-c2cc(=O)c3ccccc3o2)c1N | 77% |
| O=C1Nc2ccccc2/C1=C\c1c(Cl)[nH]c2ccccc12 | 93.9% |
| CCCNC(=O)Nc1ccc(Oc2ncnc3cc(OC)c(OC)cc23)cc1Cl | 95.9% |
| O=C(c1cc2cc(O)ccc2[nH]1)c1cc2cc(O)ccc2[nH]1 | 66.6% |
| CN1CCN(c2ccc3nc(-c4c(N)c5c(F)cccc5[nH]c4=O)[nH]c3c2)CC1 | 84.2% |
| CCCCc1c(-c2ccc(OC)cc2)[nH]c2nccnc12 | 103% |
| O=C1Nc2ccc(Br)cc2/C1=C/c1cc2c([nH]1)CCCC2 | 75.3% |
| c1ccc(-c2n[nH]c3c2oc2ccccc23)cc1 | 94.8% |
| N#Cc1cnc2cnc(NCc3cccnc3)cc2c1Nc1ccc(F)c(Cl)c1 | 99.2% |
| Cc1ccc(S(=O)(=O)/C=C/C#N)cc1 | 101% |

Set 2
Target: Calcium/calmodulin-dependent protein kinase type II subunit alpha (CAMK2A, Homo sapiens, UniProt Q9UQM7)
Chain of UniProt Q9UQM7 (whole entry, looked up): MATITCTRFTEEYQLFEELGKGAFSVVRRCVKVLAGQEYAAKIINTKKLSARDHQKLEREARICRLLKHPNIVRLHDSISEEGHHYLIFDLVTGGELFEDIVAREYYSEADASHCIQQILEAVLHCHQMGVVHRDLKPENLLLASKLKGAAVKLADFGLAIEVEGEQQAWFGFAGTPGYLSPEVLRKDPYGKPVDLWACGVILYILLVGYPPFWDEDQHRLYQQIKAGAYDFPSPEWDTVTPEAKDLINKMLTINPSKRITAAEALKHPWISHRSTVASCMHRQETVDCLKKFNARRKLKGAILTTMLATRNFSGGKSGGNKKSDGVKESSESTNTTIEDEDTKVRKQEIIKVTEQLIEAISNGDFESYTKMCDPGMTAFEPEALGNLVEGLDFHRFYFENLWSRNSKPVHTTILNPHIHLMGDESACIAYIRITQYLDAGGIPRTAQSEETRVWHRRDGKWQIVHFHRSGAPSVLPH
Effect on: enzyme activity
Mode: inhibitor
Concentration: 10 µM
| Structure (SMILES) | inhibition |
| --- | --- |
| CC(C)=CC[C@H](O)C1=CC(=O)c2c(O)ccc(O)c2C1=O | 46% |
| O=C(O[C@@H]1Cc2c(O)cc(O)cc2O[C@@H]1c1cc(=O)c(O)c2c(O)c(O)cc([C@H]3Oc4cc(O)cc(O)c4C[C@H]3O)c2c1)c1cc(O)c(O)c(O)c1 | -151% |
| CCCC(=O)C(=O)O | -20% |
| C=C1C(=O)O[C@H]2[C@H]1CCC(C)=C1CC[C@@](C)(O)[C@@H]12 | 13% |
| C[C@@H]1O[C@@H](O[C@@H]2C(=O)c3c(O)cc(O)cc3O[C@@H]2c2ccc(O)c(O)c2)[C@H](O)[C@H](O)[C@H]1O | -22% |
| O=C1C[C@@H](C(=O)O)NC(=O)N1 | -3% |
| O=C(/C=C/c1ccc(O)cc1)c1ccccc1 | 78% |
| O=C(CCCCc1ccc2c(c1)OCO2)N1CCCCC1 | -26% |
| NC[C@H]1O[C@H](O[C@H]2[C@H](O)[C@@H](O[C@H]3O[C@H](CO)[C@@H](O)[C@H](N)[C@H]3O)[C@H](N)C[C@@H]2N)[C@H](N)[C@@H](O)[C@@H]1O | 5% |

Set 3
Compound: CCC(=O)N[C@H]1CC[C@@H](C(=O)N(C)c2ccc(-c3nc4ccccc4o3)cc2)C1
Effect on: binding
Technique: radioligand binding
Concentration: 10 µM
| target | inhibition [%] |
| --- | --- |
| HRH1 (Homo sapiens, UniProt P35367) | 20.9 |
| CHRM2 (Homo sapiens, UniProt P08172) | 4.58 |
| HRH2 (Homo sapiens, UniProt P25021) | -1.25 |
| CHRM4 (Homo sapiens, UniProt P08173) | 28.9 |
| ADRA2B (Homo sapiens, UniProt P18089) | 5.31 |
| ADRA1B (Homo sapiens, UniProt P35368) | -6.32 |
| ADRB3 (Homo sapiens, UniProt P13945) | 34.9 |
| HTR7 (Homo sapiens, UniProt P34969) | -6.53 |
| HTR3A (Homo sapiens, UniProt P46098) | -1.4 |
| ADRA2C (Homo sapiens, UniProt P18825) | -5.31 |
| DRD1 (Homo sapiens, UniProt P21728) | -2.15 |
| HRH4 (Homo sapiens, UniProt Q9H3N8) | 39.3 |

Set 4
SMILES: CC(C)n1cnc(-c2ccc(F)cc2)c1-c1ncc(C(=O)Nc2ccc(N3CCN(C)CC3)cc2)[nH]1
Technique: phase 2a trial
| host | route | dose | setting | patients with TEAE [%] |
| --- | --- | --- | --- | --- |
| idiopathic pulmonary fibrosis patients | oral | 60 mg once daily | ESR increased, grade 2 | 0 |
| idiopathic pulmonary fibrosis patients | oral | 30 mg once daily | blood/lymphatic disorders, grade 1 | 2 |
| patients with idiopathic pulmonary fibrosis | – | 30 mg once daily | renal and urinary disorders SOC, grade 2 | 0 |
| idiopathic pulmonary fibrosis patients | oral | 60 mg once daily | ESR increased, grade 3 | 0 |
| patients with idiopathic pulmonary fibrosis | – | 60 mg once daily | eye swelling, grade 1 | 0 |
| idiopathic pulmonary fibrosis patients | oral | 30 mg once daily | ESR increased, grade 4 | 0 |
| idiopathic pulmonary fibrosis patients | oral | 60 mg once daily | CK-MB increased, grade 4 | 0 |
| idiopathic pulmonary fibrosis patients | oral | 30 mg once daily | LDL increased, grade 3 | 0 |
| patients with idiopathic pulmonary fibrosis | – | dose not given | nervous system disorders SOC, grade 3, all arms | 0 |
| idiopathic pulmonary fibrosis patients | oral | 30 mg once daily | urine red cells, grade 5 | 0 |

Some of these lines once more (set 3):
| target | inhibition [%] |
| --- | --- |
| HRH1 (Homo sapiens, UniProt P35367) | 20.9 |
| CHRM2 (Homo sapiens, UniProt P08172) | 4.58 |
| HRH2 (Homo sapiens, UniProt P25021) | -1.25 |
| CHRM4 (Homo sapiens, UniProt P08173) | 28.9 |
